Measured values gathered from unrelated publications.
Protocols differ between the studies behind these lines. Values joined by “and” are separate records of one study, mostly repeats; a detail may differ. Numbers after ± are the reported error.

| Compound | target or system | test | system | setting | scale | measurement | value |
| --- | --- | --- | --- | --- | --- | --- | --- |
| Cc1ncsc1-c1ccc(C(C)NC(=O)C2CC(O)CN2C(=O)C(NC(=O)CCCCCCCCCCN2CCCC(Nc3ncc(Cl)c(Nc4ccccc4S(=O)(=O)C(C)C)n3)C2)C(C)(C)C)cc1 (stereo not drawn) | 22Rv1 | RNA-seq, item: ZSCAN30 mRNA | – | concentration not given | reference: DMSO | log2 fold change | -1.82 |
| Cc1nn(-c2cccc(N)c2)c(=O)c2cnc(Nc3ccc(N4CCNCC4)cc3)nc12 | EGFR (Homo sapiens, UniProt P00533, L858R) | enzyme activity, inhibitor | – | – | – | IC50 | > 10 µM |
| CC[C@H](C)[C@H](NC(=O)[C@H](CCC(=O)O)NC(=O)[C@H](Cc1ccc(I)cc1)NC(C)=O)C(=O)N[C@@H](CC(=O)O)C(=O)COC(=O)c1c(C)cccc1C | THP-1 cells, LPS-primed | pyroptosis, LDH release | – | 25 µM, LPS 1 µg/mL, 4 h, added: nigericin 5 µM, 2 h | – | cell lysis | 60.3% and 76% |
| O=S(=O)(Nc1ccc(OC(F)(F)F)cc1)N1CCCC(C2c3ccccc3CCc3ccccc32)C1 (stereo not drawn) | D425 | immunoblot, item: Bad | – | concentration not given, 24 h | – | phosphorylation level | decreased |
| CCC(=CCc1c(O)cc2c(c1O)C(=O)CC(c1ccc(O)cc1OC)O2)CC (stereo not drawn) | HeLa | cell growth or viability, MTT | – | 6.25 µM, 48 h | – | inhibition | 19.8% |
| Cc1ccncc1.[Cl-].[Cl-].[Ru+2].c1cc(-c2ccc3cccnc3n2)nc(-c2ccc3cccnc3n2)c1.c1ccc2cc3nc4c5cccnc5c5ncccc5c4nc3cc2c1 | SK-MEL-28 | cell viability | – | light 633 nm, 100 J/cm2 | – | EC50 | 0.521 ± 0.012 µM |
| COC1CN([C@H]2CC[C@H]([C@@]3(C)Oc4c(Cl)cc(C(=O)NCc5c(SC)cc(C)[nH]c5=O)c(C)c4O3)CC2)C1 | – | RNA-seq, item: PHF13 | human, whole blood | dose not given, 24 h | reference: pretreatment baseline | log2 fold change | 1.13 |
| CNS(=O)(=O)Nc1nccc(Cc2c(C)c3ccc(Oc4ncccc4F)cc3oc2=O)c1F | CMK-11-5 | cell viability | – | 7 days | – | IC50 | > 1 µM |
| CC1(C)C[C@@H](Nc2cccc(-c3sc(C(=O)O)c(OCC(=O)O)c3Cl)c2)CCN1S(=O)(=O)Cc1cccc(NC(=O)CN2CCC(c3ccc4c(c3)oc(=O)n4C3CCC(=O)NC3=O)CC2)c1 (stereo partly drawn) | B16-F10 | HTRF, item: phospho-STAT1 Tyr701 | – | 0.123 µM, added: IFN-γ | reference: DMSO | fold change | 3.13 and 3.01 and 2.81 and 2.72 and 2.74 and 2.92 |
| COC1CCN(C(=O)/C=C/c2nn(Cc3cccc(C(F)(F)F)c3)c3nc(N4CCOCC4)ncc23)CC1 | FLO-1 | cell growth or viability, resazurin | – | 5 days | – | EC50 | > 30 µM |
| CCN(CC)CC(=O)Nc1cccc(-n2cc(-c3ccc4ccc(-c5cn(-c6cccc(NC(=O)CN(CC)CC)c6)nn5)cc4c3)nn2)c1 | RCC4 | PCR angiogenesis array, item: FGF2 | – | 5 x IC50, 2 h, normoxia | reference: untreated | fold regulation | 1.19 |
| CCC(=CCc1c(O)cc2c(c1O)C(=O)CC(c1cc(O)ccc1OC)O2)CC (stereo not drawn) | HeLa | cell growth or viability, MTT | – | 100 µM, 48 h | – | inhibition | 86.4% |
| CCN(C(=O)c1cc(F)ccc1Oc1nncnc1N1CCC2(C1)CN([C@H](CCCN(C)CCOC)C(C)C)C2)C(C)C | EJ-28 | cell growth or viability | – | 72 h | – | GI50 | > 10 µM |
| CCCC[C@H](NC(C)=O)C(=O)N[C@@H](CCC(=O)O)C(=O)N[C@@H](CO)C(=O)N[C@@H](CC(=O)O)C(=O)COC(=O)c1c(C)cccc1C | THP-1 cells, LPS-primed | pyroptosis, LDH release | – | 25 µM, LPS 1 µg/mL, 4 h, added: nigericin 5 µM, 2 h | – | cell lysis | 34.2% |
| O=C(Nc1nnc2c1c(-c1ccc(Cl)cc1)nc1sc(=Cc3ccco3)c(=O)n12)c1ccccc1 (mixture of isomers) | OVCAR-8 | SRB | – | 10 µM, NCI60 single-dose screen | reference: untreated | cell growth | 44.4% |
| CN1CCCNC(=O)c2cccc(c2)C(=O)NCCCN(C)CCCNc2cccc3c2C(=O)c2cccc(c2C3=O)NCCC1 | SAS | RNA-Seq, item: RABEP2 mRNA | – | 1 µM, 6 h | reference: untreated cells | log2 fold change | -1.45 |
| CC1CNCCN1C(=O)c1cn(C23CCCC(C)(CCC4C2CC4(C)C)C3)nn1 (stereo not drawn) | HT-29 | cell growth or viability, CCK-8 | – | 10 µM | – | inhibition | 67.3% |
| C[C@@H]1CC[C@@H]([C@@](O)(CNCc2ccccc2F)COCc2ccccc2)[C@H](OCc2ccccc2)C1 | A2780 | cell growth or viability, MTT | – | 30 µM, 72 h | – | inhibition | 99.4% |
| C=CC(=O)N1CCCC(n2c(=O)c3ncccc3n(Cc3ccc(Oc4ccccc4)cc3)c2=O)C1 (stereo not drawn) | OCI-LY19 | annexin V/PI flow cytometry | – | 100 nM, 72 h | – | early apoptotic cells | 2.82% |
| O=C(C[Se]C(=O)c1ccc2ccccc2c1)Nc1cccc(C(F)(F)F)c1 | NCI60 leukemia subpanel | cell growth | – | 10 µM, 48 h, one-dose | – | mean growth percent | -80.5% |
| O=S(=O)(Nc1ccc(OC(F)(F)F)cc1)N1CCCC(C2c3ccc(F)cc3CCc3cc(F)ccc32)C1 (stereo not drawn) | D425 | immunoblot, item: AKT | – | concentration not given | – | phosphorylation level | decreased |
| CC12CCCC(NS(=O)(=O)c3ccccc3)(C1)C1CC(C)(C)C1CC2 (stereo not drawn) | HT-29 | cell growth or viability, CCK-8 | – | 10 µM | – | inhibition | < 50% |
| COc1cc(N2CCN(C(=O)CN)CC2)ccc1Nc1ncc(Cl)c(Nc2ccccc2P(C)(C)=O)n1 | NCI-H3122 | CCK-8 | – | 2.5 nM, 48 h | – | viability | 95% |
| CCC(=CCc1c(O)cc2c(c1O)C(=O)CC(c1cccc(O)c1)O2)CC (stereo not drawn) | HeLa | cell growth or viability, MTT | – | 50 µM, 48 h | – | inhibition | 83% |

| Compound | target or system | test | system | setting | scale | measurement | value |
| --- | --- | --- | --- | --- | --- | --- | --- |
| Nc1ncc(-c2cc(-c3cnn(CC(F)(F)F)c3)ncc2F)nc1C(=O)NC1CNCC(F)C1 (stereo not drawn) | JNK1 | KINOMEscan competition binding | – | 1 µM | reference: DMSO control | remaining binding | 100% |
| O=C(C[Se]C(=O)C12CC3CC(CC(C3)C1)C2)Nc1cccc(C(F)(F)F)c1 | NCI60 leukemia subpanel | cell growth | – | 10 µM, 48 h, one-dose | – | mean growth percent | -7.4% |
| CCC(=CCc1c(O)cc2c(c1O)C(=O)CC(c1cccc(O)c1OC)O2)CC (stereo not drawn) | HeLa | cell growth or viability, MTT | – | 12.5 µM, 48 h | – | inhibition | 26.7% |
| CC(=O)N1C[C@H](O)C[C@H]1C(=O)N[C@@H](CC(C)C)C(=O)N[C@@H](C)C(=O)N[C@@H](CC(=O)O)C(=O)COC(=O)c1c(C)cccc1C | THP-1 cells, LPS-primed | pyroptosis, LDH release | – | 25 µM, LPS 1 µg/mL, 4 h, added: nigericin 5 µM, 2 h | – | cell lysis | 88.5% |
| N#C[C@@H]1CCCN1C(=O)CNC(=O)c1ccnc2ccc(OCCCN3CCN(C(=O)CCc4ccc(O)c(CN5CCN6CC(=O)[O][Al-]([18F])([O]C(=O)C5)[O]c5ccc(CCC(=O)N7CCN(CCCOc8ccc9nccc(C(=O)NCC(=O)N%10CCC[C@H]%10C#N)c9c8)CC7)cc5C6)c4)CC3)cc12 (stereo partly drawn) | HT1080 cells expressing human FAP | – | – | 90 min, 37 °C | – | internalized fraction | 72.8 ± 3.2% |
| O=c1cc(Cn2ccnc2)c2cc(O)ccc2o1 | COS-7 (untransfected) | – | – | 500 µM, unit not given | reference: 3 µM ionomycin | calcium mobilisation signal | 0.44 ± 0.65 |
| COc1ccc(C2CC(=O)c3c(cc(O)c(CC=C(C)C)c3O)O2)cc1 (stereo not drawn) | HeLa | cell growth or viability, MTT | – | 50 µM, 48 h | – | inhibition | 22% |
| CC12CCCC(n3cc(C(N)=O)nn3)(C1)C1CC(C)(C)C1CC2 (stereo not drawn) | HT-29 | cell growth or viability, CCK-8 | – | 10 µM | – | inhibition | < 50% |
| COc1ccc(CNC[C@@](O)(COCc2ccccc2)[C@@H]2CC[C@@H](C)C[C@H]2OCc2ccccc2)cc1 | A2780 | cell growth or viability, MTT | – | 30 µM, 72 h | – | inhibition | 99.2% |
| CCC(=CCc1c(O)cc2c(c1O)C(=O)CC(c1ccccc1O)O2)CC (stereo not drawn) | HeLa | cell growth or viability, MTT | – | 30 µM, 48 h | – | inhibition | 39.1% |
| C=CC(=O)N1[C@H](c2ccc3c(c2)OCO3)c2[nH]c3ccccc3c2C[C@H]1C(=O)N1CCOCC1 | 22Rv1 | ATAC-seq | – | concentration not given, FOXA1-binding sites, log2FC -1 | – | decreased accessible sites | 625 sites |
| N#C[C@@H]1CC(F)(F)CN1C(=O)CNC(=O)c1ccnc2ccc(OCCCN3CCN(C(=O)CCc4ccc5c(c4)CN4CCN(Cc6cc(CCC(=O)O)ccc6O)CC(=O)[O][Al-]([18F])([O]C(=O)C4)[O]5)CC3)cc12 (stereo partly drawn) | HT1080 cells expressing human FAP | – | – | 120 min, 37 °C | – | internalized fraction | 84 ± 0.6% |
| CC(=O)N[C@@H](CC(=O)O)C(=O)N[C@H](C(=O)N[C@@H](CCC(=O)O)C(=O)N[C@H](C(=O)NCC(=O)N[C@@H](CCC(=O)O)C(=O)N[C@H](C(=O)O)C(C)C)[C@@H](C)O)C(C)C | HaCaT | – | – | concentration not given, added: UVA | – | cells, SA-β-gal positive | decreased |
| O=S(=O)(N[C@H]1CCO[C@@H](C2c3ccccc3CCc3ccccc32)C1)c1ccc(OC(F)(F)F)cc1 | D341 | immunoblot | – | concentration not given | – | I2PP2A protein level | increased |
| C[C@@H]1CC[C@@H]([C@@](O)(CNCc2cccc(F)c2)COCc2ccccc2)[C@H](OCc2ccccc2)C1 | A2780 | cell growth or viability, MTT | – | 30 µM, 72 h | – | inhibition | 95.3% |
| CC(C)c1ccc(N(C)c2ccc3c(c2)OCC[C@H]3CNc2cnccc2C(=O)O)cc1 | CCF-STTG1 | cell growth or viability, ATP luminescence | – | 7 days | – | IC50 | ≥ 10 µM |
| COc1ccccc1CNC[C@](O)(COCc1ccccc1)[C@@H]1CC[C@@H](C)C[C@H]1OCc1ccccc1 | A2780 | cell growth or viability, MTT | – | 10 µM, 72 h | – | inhibition | 90.1% |
| CC12CCCC(NS(=O)(=O)c3ccc(C#N)cc3)(C1)C1CC(C)(C)C1CC2 (stereo not drawn) | HT-29 | cell growth or viability, CCK-8 | – | 10 µM | – | inhibition | < 50% |
| CC(=O)N[C@@H](CC(=O)O)C(=O)N[C@@H](CC(C)C)C(=O)N[C@@H](C)C(=O)N[C@@H](CC(=O)O)C(=O)COC(=O)c1c(C)cccc1C | THP-1 cells, LPS-primed | pyroptosis, LDH release | – | 25 µM, LPS 1 µg/mL, 4 h, added: nigericin 5 µM, 2 h | – | cell lysis | 68.8% and 83.8% |
| CC12CCCC(NS(=O)(=O)c3ccc(O)c(N)c3)(C1)C1CC(C)(C)C1CC2 (stereo not drawn) | HT-29 | cell growth or viability, CCK-8 | – | 10 µM | – | inhibition | < 50% |
| O=S(=O)(N[C@H]1CCO[C@@H](C2c3ccc(F)cc3CCc3cc(F)ccc32)C1)c1ccc(OC(F)(F)F)cc1 | D425 | immunoblot, item: CIP2A | – | concentration not given | – | protein level | decreased |
| Cc1cc(Cl)cc(-c2ccnc3cc(CN4C(=O)C5C(C4=O)C5(C)C)sc23)c1C[C@@H]1CNCCO1 (stereo partly drawn) | CHP-212 resistant cells (pooled) | annexin V-PI flow cytometry | – | 1 µM, 48 h | – | apoptotic cells (early plus late) | 7.11% and 13.4% and 16.4% |
| Cn1ncc2cc(-c3cncc(Cl)c3N3CCC4(CCNC4=O)CC3)ccc21 | LS174T | gene expression, microarray, item: RNF183 mRNA | – | concentration not given, 4 h | reference: untreated cells | log2 fold change | -1.33 |
| O=C(CCc1ccc(CNC(C(=O)OC2CCCC2)C2CCCCC2)cn1)NO (stereo not drawn) | CD14+ monocytes | – | human whole blood | concentration not given, 12 h | – | monocyte count | decreased |

For quick reference, copied from above:
| Compound | target or system | test | system | setting | scale | measurement | value |
| --- | --- | --- | --- | --- | --- | --- | --- |
| CCC(=CCc1c(O)cc2c(c1O)C(=O)CC(c1cc(O)ccc1OC)O2)CC (stereo not drawn) | HeLa | cell growth or viability, MTT | – | 100 µM, 48 h | – | inhibition | 86.4% |
| CCN(C(=O)c1cc(F)ccc1Oc1nncnc1N1CCC2(C1)CN([C@H](CCCN(C)CCOC)C(C)C)C2)C(C)C | EJ-28 | cell growth or viability | – | 72 h | – | GI50 | > 10 µM |
| CCCC[C@H](NC(C)=O)C(=O)N[C@@H](CCC(=O)O)C(=O)N[C@@H](CO)C(=O)N[C@@H](CC(=O)O)C(=O)COC(=O)c1c(C)cccc1C | THP-1 cells, LPS-primed | pyroptosis, LDH release | – | 25 µM, LPS 1 µg/mL, 4 h, added: nigericin 5 µM, 2 h | – | cell lysis | 34.2% |
